Assay results from different studies.
Numbered parts are unrelated; each lists some results of a single study. Positions count from the first letter of the parent shown.

Set 1
Target: Ras GTPase-activating protein-binding protein 1, full length (G3BP1, Homo sapiens, UniProt Q13283)
Chain of UniProt Q13283 (whole entry, looked up): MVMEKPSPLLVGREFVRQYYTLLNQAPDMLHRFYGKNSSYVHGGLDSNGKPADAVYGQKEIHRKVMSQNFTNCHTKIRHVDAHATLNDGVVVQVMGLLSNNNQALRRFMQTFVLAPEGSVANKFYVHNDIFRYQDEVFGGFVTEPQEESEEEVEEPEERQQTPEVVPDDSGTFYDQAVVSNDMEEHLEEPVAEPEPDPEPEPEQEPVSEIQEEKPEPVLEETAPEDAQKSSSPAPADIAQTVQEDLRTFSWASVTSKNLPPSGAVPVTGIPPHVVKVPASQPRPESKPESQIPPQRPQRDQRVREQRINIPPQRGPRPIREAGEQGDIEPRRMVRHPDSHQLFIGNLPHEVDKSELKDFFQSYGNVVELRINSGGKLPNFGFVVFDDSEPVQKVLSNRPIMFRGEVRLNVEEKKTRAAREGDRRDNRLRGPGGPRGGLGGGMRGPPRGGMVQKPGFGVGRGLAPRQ
Method: RNA Bind-n-Seq
Form: RNA
Sample: in vitro
Concentration: 200 nM
Notes: whole 134-nt RNA, ends assumed
With: 150 mM LiCl
Baseline: input library
Reading: higher = stronger binding
Endpoint: log2 enrichment
Each molecule: 7-deaza-guanosine replaces G
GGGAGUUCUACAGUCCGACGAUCUAACUUUAGAGGAGGAUCUGAUGGAUAUGGCAGUGGACGUGGAUUUGGGGAUGGCUAUAAUGGGUAUGGAGGAGGACCGGGAGGUGGCAAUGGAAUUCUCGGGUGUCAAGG: 0.171
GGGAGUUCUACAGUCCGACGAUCUUAGAAGAAGAAGAUGGAGUGUGGGAGAAUGGACUUUCCUAUGAAUGCCGUACUCUGCUUUUCAAAGCAGUUCACAAUCUAUUGGAACGGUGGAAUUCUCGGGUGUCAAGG: -2.69
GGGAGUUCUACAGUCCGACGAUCUGGGAGGUGGAUUUUGUUUAUUUUUUUAGCUCAUUUCCAGGGGUGGGAAUUUUUUUUUAAUAUGUGUCAUGAAUAAAGUCGUUUUUGAAAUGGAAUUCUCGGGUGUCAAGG: 0.026
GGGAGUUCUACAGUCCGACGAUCCUCAAGUCCUGUGCUACACAUCGUAUGUACCGAAUCGGCCGGGGCCGGCCGGGGAAAGUAUUAUGUUACGCCGUUCGGAUCUGCACUUCCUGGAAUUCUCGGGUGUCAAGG: 0.417
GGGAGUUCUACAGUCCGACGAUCUCCUGUGCUACACAUCGUAUGUACCGAAUCGGGGUUUGGGGAAAGGGGUUUUUUUGGGGAAAGUAUUAUGUUACGCCGUUCGGAUCUGCAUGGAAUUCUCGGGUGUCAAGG: 0.295
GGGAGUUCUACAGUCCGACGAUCUCCUGUGCUACACAUCGUAUGUACCGAAUCGGGGUUUUUUUGGGGAAAGGGGAAAGGGGAAAGUAUUAUGUUACGCCGUUCGGAUCUGCAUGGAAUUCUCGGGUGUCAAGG: 0.431
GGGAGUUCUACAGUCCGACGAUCCCUCAAGUCCUGUGCUACACAUCGUAUGUACCGAAUCGGGAGGGAGGGGAGGGAAAGUAUUAUGUUACGCCGUUCGGAUCUGCACUUCCAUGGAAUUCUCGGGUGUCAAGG: -0.0289
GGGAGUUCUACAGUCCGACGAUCCCUCAAGUCCUGUGCUACACAUCGUAUGUACCGAAUCGGAAAAAGGAGGUGGAAAGUAUUAUGUUACGCCGUUCGGAUCUGCACUUCCAGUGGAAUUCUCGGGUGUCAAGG: 0.176
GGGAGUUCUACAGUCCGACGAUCUCAGGUCCUUAAGUACCUUCGUAUUACUUUUAGCAGGAAAAACGGCAUGUUUUGCAUCUGGUGUGCAAUGUGAAGAGUCCUUCAAAAAUGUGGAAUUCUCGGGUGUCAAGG: -0.757
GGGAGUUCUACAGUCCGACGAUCGUCCUGUGCUACACAUCGUAUGUACCGAAUCGGGGUUUUUGGGGUUUUUGGUUUUUGGGAAAGUAUUAUGUUACGCCGUUCGGAUCUGCAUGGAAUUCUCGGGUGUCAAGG: -0.81
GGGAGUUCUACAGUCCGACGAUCCCUGUGCUACACAUCGUAUGUACCGAAUCGGCCCCCCGGGGCCCCCCGGGCCCCCCGGGGAAAGUAUUAUGUUACGCCGUUCGGAUCUGCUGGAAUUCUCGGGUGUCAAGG: -2.6

Set 2
Target: RNA binding protein fox-1 homolog 2, RRM domain, GST-SBP tag (RBFOX2, Homo sapiens, UniProt O43251-10, residues 100-194)
Method: RNA Bind-n-Seq
Form: RNA
Sample: in vitro
Concentration: 365 nM
Notes: natural RNA segment, single round, ends assumed
Baseline: no-protein control
Reading: higher = stronger binding
Endpoint: RBNS enrichment (R)
Residues (chain): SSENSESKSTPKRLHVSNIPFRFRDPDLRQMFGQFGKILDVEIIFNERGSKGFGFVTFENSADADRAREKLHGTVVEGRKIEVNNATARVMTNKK
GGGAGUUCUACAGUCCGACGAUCCAGGCCUCACUCCACCCUGAAUGGACUCGAGCCAUGUAUUCAUUCAGUAAACUGACAUUAUUCUCCCGCUUCGUUCAUGUUUAUUUCACUUGCCUUGGUCAGAGGCCAAGUGGAAUUCUCGGGUGCCAA: 0.429
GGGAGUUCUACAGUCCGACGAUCUACUCAUGCUGUUACUGUACUUAUGCACCAUUCAGACUUGUUAGAGUAGAUGUGGGUUUAUGACUGCCAAGUUUGCCCAGUACAGUAGUUUUUUAUCACUAAAAGUUGGAUGGAAUUCUCGGGUGCCAA: 0.713
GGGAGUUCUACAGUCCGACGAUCAAGCUAAUAGGAGUCUGACCCGAGGGCCUGCUGCUUCCUGGUUAAGUAUCUUUUGAGAUUCUAGAACACAUGGGAGCUUUUUAUUUUCGGGGAAAAACCGUAUUUUUUUCUGGAAUUCUCGGGUGCCAA: 0.326
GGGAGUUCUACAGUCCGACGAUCAUUGUAAAUACCAUAUGAAAUCCUUUUUGAUUAAAGCUAUUCAAAAUAAAAAAUUUUAAUGAAUUAAUAUGUCAAUAUUUUUUCCUGGAUCCUUACACACUUGUUUGAUUUGGAAUUCUCGGGUGCCAA: 0.776
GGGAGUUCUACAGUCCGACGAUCAGUGCCCAACCAGGGACCACUGUCAUCAUAGUGGCUCUCAAUGUGCAUGUCACACCCCCCCUCAGUAGACUUGAGUAUUUUGAUGACCAAAGAGGAUGAUUUUCCUCAGAUGGAAUUCUCGGGUGCCAA: 1.27
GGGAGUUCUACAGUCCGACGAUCGGAGGUCAAGUAAGGCAGGAAGGUCCAGCCUGAGCUGGAUUCGGGACUCCAACACCCUGGAGUGGUUCCGUCAGACCAUGAGGAGCCAAGACCAGCAGGUCCCACAGCCGUGGAAUUCUCGGGUGCCAA: 0.304
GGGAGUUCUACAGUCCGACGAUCCAUGCCUGCCACCUAACCACCUACCUGCCUUAGGCCAUAGCCUGGCCUGUGCCCCUAAACACUACAUUAGACAGUGACACCCAAAGGUUUUCUUAGGAGGGUGUCUGGCAUGGAAUUCUCGGGUGCCAA: 0.415
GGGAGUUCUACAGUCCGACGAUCUAACAGAAGCUUAGGGAACUAAGCAACAUAACAUAUCCAGCAAAAGGCAAGAUUCUAACCUAUACAGCCUGAUGCUAGAGCCUGUGAUGACCACUGUGCUUUGCUACCAAUGGAAUUCUCGGGUGCCAA: 0.274
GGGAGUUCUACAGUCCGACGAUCUCUUGAUGGUUUCCAGGCCUCGUUAUGCAUGGUUUGCUUGAUGCCCAUUUUUUGUGCCUUGUGCUGUUGGAUGGUAACGACCACUCACCAUGUAAACACAGUACCUCAGUUGGAAUUCUCGGGUGCCAA: 7.03
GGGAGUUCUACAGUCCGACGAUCAAGACAAAUACCUUGGCUCGGGAGGAGUGGGAACAGGGAGAGACAAAAACCACCACUUCCUGGGGAGACGUGGAUACCGUCCUCCUUGCCACCAUGGCCAGUAUGUGCAGUGGAAUUCUCGGGUGCCAA: 0.411
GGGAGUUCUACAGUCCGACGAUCUCUUGGGUCUAAUCUUUCCCCUUGACCCAGAACUUCCUCCCCACAAAAAUGCCUUUAAAAACCUUCCUGAGACUUAAGCAUUCUGCCCCACUUACUAACUGCCAGUUCUCUGGAAUUCUCGGGUGCCAA: 1.33
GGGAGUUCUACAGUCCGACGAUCUAGAUAUGAGUUGAGCACCCUGCCUUUCUUCCUAUCACCCCGCUUCUGCUGAUAGUCCGUGCUACAUUAAGGGACUGAGCAGAGAACACUCAGUCAAGUCCUGAUCCAUUUGGAAUUCUCGGGUGCCAA: 0.981

Set 3
Target: RING finger protein unkempt homolog, zinc fingers 1-6, GST-SBP tag (UNK, Homo sapiens, UniProt Q9C0B0, residues 30-357)
Method: RNA Bind-n-Seq
Form: RNA
Sample: in vitro
Concentration: not given
Notes: RNA with constant flanks, ends assumed
Baseline: input RNA pool
Reading: higher = stronger binding
Endpoint: bound/input enrichment
Construct (chain): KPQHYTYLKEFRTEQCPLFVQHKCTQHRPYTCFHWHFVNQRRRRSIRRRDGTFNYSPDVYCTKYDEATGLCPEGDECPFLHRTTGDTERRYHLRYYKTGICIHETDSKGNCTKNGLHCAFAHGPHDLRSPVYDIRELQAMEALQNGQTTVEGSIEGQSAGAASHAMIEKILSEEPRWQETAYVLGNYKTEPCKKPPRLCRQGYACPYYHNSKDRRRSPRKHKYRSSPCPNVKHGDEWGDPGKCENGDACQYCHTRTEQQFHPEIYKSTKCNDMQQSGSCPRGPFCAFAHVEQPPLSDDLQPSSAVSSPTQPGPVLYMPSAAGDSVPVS
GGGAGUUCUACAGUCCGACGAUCGAGUCAUGCAACGGUUCACACCAGGCAAGGGGGGAUCCACUCAGUGGAGCAUCUGACCGGAUGAAAGAAGCAUCAGUCAACCCAUCGGGAGCCCGAGAAGAACAAGAGGCUCACACUGACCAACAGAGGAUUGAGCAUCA: 0.0678 ratio
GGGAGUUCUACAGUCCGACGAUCGAAAGAGUAGAUGGGCCCAAGCACAGCCUCCUCAUGCGUUGAAAUAAUGCCAAAUGCUCUUCCGUAAAAUGCUGAAUUACGGUGUUUUUUUUUUUUUUGCAUCAUUUGUCUUUAAUAUUCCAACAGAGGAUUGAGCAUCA: 0.323 ratio
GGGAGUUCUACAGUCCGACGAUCAAUUUGUUGUCUGCAAGCAAAUUAUAUAAUAAUAUUACCUUCGAAGAACUUGGAGCUCUUUCCGAGAUCCCUGCAGCUAAGGCGGAAAAGAUAGCAUCUCAAAUGAUAACCGAAGGACGUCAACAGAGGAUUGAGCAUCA: 0.421 ratio
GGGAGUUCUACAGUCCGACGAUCGAAAAAGAGCAGGAAGUGAAUGCUCGUUUACUUCAUUGUGUGAGUAAACAGAAAAUUUUACUCCGCCAGGCUAGAAGAACUCAGAAACACUUGCAGAUGCUCCUGGCAAAGCAUGUUGUUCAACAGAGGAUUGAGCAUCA: 0.127 ratio
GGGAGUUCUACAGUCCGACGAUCCUGUGGGGACUUGACAGCAAUGCUCAUCUCUCAUGCUUCAAUUUUUCUUUUCUUACUGUUAACCGGAAAAAAAUCAACAUCUGUAAAUUAAGAAUACAGCAAUUAUCUGUACAGUACUGCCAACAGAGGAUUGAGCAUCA: 0.161 ratio
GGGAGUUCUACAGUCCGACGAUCCUAGCACAAGGAGACAUGAAACAGCUGGCUGAAGAUGUGAAGCUGCAGCUGUAUAAGUUACCCGAAAUUCCUGAUCCAGACAAAAACUGGGCUACUCUGGCGCAGAAAUUAGGUCUGGGGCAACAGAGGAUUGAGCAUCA: 0.17 ratio
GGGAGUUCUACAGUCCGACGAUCUAUCAUCCUGAUAAGAAUCCAAAUGCAGGAGACAAAAAUUAAAUGGAUUCUGGAUUCCUGCCGCUUCUCCCCACUCUUCUACUUGAAAAUGCAAUUAUUUUUAUUUUUACCUUUUCUUUACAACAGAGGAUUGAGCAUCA: 0.558 ratio

Set 4
Target: CCNB2, cyclin fold, Cln2 fusion (human)
Method: yeast growth competition, sequencing
Sample: yeast
Notes: weak parent motif
Baseline: not given
Reading: higher = stronger binding
Endpoint: normalised enrichment score
Parent: SCAPER docking peptide (human); SNARRSLNFGGST
G10P: 0.603
L7P: -0.101
S6H: 0.476
S1C: 0.398
L7R: 0.16
N8Q: 0.179
N2K: 0.262
S12L: 0.394
G10Q: 0.458
T13W: -0.124
G10H: 0.346
G10V: -0.788
F9W: 1.17
G10N: 0.161
F9V: 0.00196
R4H: -0.106
A3R: -0.178

Excerpt of the above (set 1):
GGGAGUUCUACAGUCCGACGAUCCCUCAAGUCCUGUGCUACACAUCGUAUGUACCGAAUCGGGAGGGAGGGGAGGGAAAGUAUUAUGUUACGCCGUUCGGAUCUGCACUUCCAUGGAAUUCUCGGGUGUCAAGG: -0.0289
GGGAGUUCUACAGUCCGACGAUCCCUCAAGUCCUGUGCUACACAUCGUAUGUACCGAAUCGGAAAAAGGAGGUGGAAAGUAUUAUGUUACGCCGUUCGGAUCUGCACUUCCAGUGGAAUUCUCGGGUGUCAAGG: 0.176
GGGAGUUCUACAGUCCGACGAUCUCAGGUCCUUAAGUACCUUCGUAUUACUUUUAGCAGGAAAAACGGCAUGUUUUGCAUCUGGUGUGCAAUGUGAAGAGUCCUUCAAAAAUGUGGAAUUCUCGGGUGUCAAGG: -0.757
